Published values pooled from the literature.
Compare with care: the assays were run in different laboratories. ± gives the spread as reported.
T1: PDHA1/PDHB 30-390 E229Q on β (Homo sapiens); chain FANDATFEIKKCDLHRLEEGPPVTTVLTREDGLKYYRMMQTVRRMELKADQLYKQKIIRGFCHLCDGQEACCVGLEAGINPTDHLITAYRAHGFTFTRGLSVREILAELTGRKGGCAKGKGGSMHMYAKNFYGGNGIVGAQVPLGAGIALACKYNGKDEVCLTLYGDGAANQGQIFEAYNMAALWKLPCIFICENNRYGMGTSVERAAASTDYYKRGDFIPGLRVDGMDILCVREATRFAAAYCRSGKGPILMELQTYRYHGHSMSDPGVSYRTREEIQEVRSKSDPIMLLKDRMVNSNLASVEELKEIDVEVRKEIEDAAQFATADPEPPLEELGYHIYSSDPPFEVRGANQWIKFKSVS; chain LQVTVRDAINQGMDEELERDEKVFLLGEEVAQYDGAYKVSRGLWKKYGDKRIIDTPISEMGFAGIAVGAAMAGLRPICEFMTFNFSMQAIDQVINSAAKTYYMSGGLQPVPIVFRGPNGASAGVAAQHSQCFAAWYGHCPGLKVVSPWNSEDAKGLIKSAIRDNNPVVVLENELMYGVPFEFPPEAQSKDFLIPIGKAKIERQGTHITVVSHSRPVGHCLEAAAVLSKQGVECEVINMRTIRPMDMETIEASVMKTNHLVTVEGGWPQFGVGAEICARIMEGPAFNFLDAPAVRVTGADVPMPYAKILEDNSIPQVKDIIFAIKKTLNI
T2: HSP90AA1 723-732 C-terminal peptide E to K, N-terminal 5-carboxyfluorescein (Homo sapiens); DDTSRMEKVD
B1: DLAT 214-416 (Homo sapiens, UniProt P10515); sequence looked up; chain SYPPHMQVLLPALSPTMTMGTVQRWEKKVGEKLSEGDLLAEIETDKATIGFEVQEEGYLAKILVPEGTRDVPLGTPLCIIVEKEADISAFADYRPTEVTDLKPQVPPPTPPPVAAVPPTPQPLAPTPSAPCPATPAGPKGRVFVSPLAKKLAVEKGIDLTQVKGTGPDGRITKKDIDSFVPSKVAPAPAAVVPPTGPGMAPVP
B2: FGF6 (Homo sapiens, UniProt P10767); chain SPAGTRANNTLLDSRGWGTLLSRSRAGLAGEIAGVNWESGYLVGIKRQRRLYCNVGIGFHLQVLPDGRISGTHEENPYSLLEISTVERGVVSLFGVRSALFVAMNSKGRLYATPSFQEECKFRETLLPNNYNAYESDLYQGTYIALSKYGRVKRGSKVSPIMTVTHFLPRI
UniProt Q61851, sequence (whole entry, looked up): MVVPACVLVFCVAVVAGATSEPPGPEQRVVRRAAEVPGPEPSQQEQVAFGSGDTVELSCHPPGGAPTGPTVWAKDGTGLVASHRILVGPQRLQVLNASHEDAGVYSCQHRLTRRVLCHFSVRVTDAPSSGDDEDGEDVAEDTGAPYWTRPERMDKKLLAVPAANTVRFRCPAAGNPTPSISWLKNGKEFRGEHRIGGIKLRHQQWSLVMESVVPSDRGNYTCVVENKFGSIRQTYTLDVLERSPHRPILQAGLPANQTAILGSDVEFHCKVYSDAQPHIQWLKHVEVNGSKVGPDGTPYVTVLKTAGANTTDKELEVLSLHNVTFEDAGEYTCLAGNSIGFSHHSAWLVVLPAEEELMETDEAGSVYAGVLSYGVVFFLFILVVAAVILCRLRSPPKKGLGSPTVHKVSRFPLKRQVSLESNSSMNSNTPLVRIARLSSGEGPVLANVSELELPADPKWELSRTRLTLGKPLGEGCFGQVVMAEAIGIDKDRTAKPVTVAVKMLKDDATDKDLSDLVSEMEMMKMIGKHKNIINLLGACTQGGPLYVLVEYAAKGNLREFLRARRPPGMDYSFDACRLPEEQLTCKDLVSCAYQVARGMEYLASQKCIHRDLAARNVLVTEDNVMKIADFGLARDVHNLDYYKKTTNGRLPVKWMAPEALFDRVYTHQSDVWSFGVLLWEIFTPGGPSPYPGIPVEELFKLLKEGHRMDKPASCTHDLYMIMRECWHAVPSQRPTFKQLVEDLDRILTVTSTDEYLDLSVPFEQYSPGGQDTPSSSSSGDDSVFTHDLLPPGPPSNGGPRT
UniProt O54890, sequence (whole entry, looked up): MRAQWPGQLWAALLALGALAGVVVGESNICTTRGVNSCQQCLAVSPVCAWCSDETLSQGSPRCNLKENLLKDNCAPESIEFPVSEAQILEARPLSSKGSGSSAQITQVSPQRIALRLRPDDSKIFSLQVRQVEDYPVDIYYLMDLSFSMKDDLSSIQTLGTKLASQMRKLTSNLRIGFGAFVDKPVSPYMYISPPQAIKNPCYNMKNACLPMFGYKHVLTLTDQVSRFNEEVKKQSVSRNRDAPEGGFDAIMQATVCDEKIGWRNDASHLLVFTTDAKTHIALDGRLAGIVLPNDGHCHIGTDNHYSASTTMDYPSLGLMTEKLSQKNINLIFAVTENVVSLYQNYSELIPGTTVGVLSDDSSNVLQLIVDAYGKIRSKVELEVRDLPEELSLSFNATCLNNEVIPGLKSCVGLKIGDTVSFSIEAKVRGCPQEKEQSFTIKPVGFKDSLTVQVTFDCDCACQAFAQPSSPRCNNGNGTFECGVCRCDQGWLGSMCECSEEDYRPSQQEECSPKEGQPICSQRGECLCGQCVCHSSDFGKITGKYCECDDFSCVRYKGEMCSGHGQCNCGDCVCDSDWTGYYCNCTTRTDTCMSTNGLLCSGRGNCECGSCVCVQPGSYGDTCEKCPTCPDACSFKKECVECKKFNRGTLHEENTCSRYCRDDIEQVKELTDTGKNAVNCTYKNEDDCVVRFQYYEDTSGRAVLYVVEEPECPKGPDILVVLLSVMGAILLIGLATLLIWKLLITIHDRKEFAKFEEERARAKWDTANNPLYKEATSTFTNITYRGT
UniProt P70618, sequence (whole entry, looked up): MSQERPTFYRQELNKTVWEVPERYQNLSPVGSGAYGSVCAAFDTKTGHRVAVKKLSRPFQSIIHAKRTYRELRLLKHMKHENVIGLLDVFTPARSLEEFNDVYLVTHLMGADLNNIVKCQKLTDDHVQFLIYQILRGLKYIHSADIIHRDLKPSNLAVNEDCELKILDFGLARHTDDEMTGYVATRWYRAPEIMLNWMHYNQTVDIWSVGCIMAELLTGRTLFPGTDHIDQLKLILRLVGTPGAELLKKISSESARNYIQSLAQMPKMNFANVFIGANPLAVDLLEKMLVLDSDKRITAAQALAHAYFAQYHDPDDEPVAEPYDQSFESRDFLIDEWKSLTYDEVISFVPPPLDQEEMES
UniProt P35191, sequence (whole entry, looked up): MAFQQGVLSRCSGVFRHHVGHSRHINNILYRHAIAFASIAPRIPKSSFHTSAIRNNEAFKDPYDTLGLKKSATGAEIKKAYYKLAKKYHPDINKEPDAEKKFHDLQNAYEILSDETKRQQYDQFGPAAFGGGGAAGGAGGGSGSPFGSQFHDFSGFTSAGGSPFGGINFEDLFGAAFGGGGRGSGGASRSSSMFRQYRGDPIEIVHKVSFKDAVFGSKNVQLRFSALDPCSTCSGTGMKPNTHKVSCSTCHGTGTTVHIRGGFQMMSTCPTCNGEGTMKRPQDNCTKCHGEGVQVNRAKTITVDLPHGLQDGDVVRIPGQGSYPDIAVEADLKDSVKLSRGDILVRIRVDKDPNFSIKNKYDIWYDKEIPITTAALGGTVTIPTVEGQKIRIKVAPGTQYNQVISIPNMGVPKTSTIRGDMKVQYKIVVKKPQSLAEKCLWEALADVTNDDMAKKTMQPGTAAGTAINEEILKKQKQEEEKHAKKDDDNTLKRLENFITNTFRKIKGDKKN
UniProt P05556, sequence (whole entry, looked up): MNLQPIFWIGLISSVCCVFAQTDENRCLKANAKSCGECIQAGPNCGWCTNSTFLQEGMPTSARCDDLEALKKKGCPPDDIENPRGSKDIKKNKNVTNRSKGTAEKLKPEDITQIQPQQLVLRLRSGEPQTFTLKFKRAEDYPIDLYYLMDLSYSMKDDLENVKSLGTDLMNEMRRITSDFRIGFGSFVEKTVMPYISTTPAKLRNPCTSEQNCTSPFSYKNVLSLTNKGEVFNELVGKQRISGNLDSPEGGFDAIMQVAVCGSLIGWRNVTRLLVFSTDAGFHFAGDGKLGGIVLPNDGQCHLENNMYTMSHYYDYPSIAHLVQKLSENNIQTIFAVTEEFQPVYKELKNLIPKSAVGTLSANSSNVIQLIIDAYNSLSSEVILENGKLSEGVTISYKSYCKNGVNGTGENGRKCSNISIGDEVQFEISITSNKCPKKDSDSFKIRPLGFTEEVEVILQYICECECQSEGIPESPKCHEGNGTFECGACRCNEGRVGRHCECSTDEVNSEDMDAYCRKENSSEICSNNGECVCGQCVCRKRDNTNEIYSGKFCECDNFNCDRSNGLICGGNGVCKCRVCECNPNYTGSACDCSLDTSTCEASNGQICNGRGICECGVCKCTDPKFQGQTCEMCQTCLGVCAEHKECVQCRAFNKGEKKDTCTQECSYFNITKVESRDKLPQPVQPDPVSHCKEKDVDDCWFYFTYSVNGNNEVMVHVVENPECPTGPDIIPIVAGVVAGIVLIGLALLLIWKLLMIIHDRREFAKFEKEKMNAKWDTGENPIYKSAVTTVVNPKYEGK
UniProt Q99615, sequence (whole entry, unmodified, looked up): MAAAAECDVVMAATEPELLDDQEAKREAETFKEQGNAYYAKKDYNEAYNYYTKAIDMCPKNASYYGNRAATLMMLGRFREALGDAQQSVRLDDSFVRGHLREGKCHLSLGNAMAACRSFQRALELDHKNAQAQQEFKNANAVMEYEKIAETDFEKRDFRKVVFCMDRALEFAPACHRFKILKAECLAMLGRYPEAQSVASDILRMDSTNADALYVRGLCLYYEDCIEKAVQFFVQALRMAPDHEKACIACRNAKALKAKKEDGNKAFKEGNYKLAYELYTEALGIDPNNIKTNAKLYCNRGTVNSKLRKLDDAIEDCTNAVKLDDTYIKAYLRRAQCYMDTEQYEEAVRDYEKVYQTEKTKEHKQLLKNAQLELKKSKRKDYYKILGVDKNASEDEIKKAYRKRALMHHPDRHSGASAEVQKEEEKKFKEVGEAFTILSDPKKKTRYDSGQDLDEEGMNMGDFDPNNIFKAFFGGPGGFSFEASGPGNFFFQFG
UniProt Q9UQ84, sequence (whole entry, looked up): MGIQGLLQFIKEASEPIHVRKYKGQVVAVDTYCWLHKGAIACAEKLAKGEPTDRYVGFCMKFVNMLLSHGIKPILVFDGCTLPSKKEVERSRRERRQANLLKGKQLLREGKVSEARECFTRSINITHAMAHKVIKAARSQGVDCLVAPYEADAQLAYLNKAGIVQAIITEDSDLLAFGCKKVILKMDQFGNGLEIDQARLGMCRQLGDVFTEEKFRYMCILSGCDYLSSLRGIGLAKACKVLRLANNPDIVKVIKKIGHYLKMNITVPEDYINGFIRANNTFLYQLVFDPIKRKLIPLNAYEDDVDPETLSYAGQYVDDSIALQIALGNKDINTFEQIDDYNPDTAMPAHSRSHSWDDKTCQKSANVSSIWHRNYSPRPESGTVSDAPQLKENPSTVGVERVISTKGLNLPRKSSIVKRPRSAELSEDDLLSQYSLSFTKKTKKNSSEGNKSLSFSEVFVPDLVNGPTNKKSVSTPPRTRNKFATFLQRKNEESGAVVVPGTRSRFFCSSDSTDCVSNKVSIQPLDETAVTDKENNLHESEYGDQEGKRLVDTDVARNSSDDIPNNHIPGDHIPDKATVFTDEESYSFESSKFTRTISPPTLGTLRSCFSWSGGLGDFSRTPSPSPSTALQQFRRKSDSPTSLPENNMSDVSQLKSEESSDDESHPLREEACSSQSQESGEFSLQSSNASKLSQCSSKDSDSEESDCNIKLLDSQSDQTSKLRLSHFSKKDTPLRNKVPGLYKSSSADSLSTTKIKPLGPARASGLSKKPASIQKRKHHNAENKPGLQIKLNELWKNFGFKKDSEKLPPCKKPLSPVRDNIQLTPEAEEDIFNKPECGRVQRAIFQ

Molecule = B1 (DLAT 214-416); partner = T1, PDHA1/PDHB 30-390 E229Q on β (Homo sapiens); test = SPR; quantity = binding; value = binds
Molecule = WRN fragment (Homo sapiens); partner = EXO1 (Homo sapiens, UniProt Q9UQ84); test = Holliday junction incision by EXO1, activator; conditions = 8 nM, 15 min, 37 °C; scale = higher = more incision; quantity = incision; value = 12 fold
Molecule = MENVKKATATTTWMVPAAQ (L3MBTL3 52-70 T68A (Homo sapiens, UniProt Q96JM7-2); sequence looked up); partner = Rbpj 53-474 (Mus musculus, UniProt P31266); test = ITC; system = peptide; conditions = pH 6.5, 25 °C, NaCl 150 mM; quantity = ΔH; value = -11.7 kcal/mol
Molecule = CNR1 (Homo sapiens, UniProt P21554); partner = ITGB1 (Homo sapiens, UniProt P05556); test = co-IP; system = endothelial cells, cell extracts; conditions = clustered integrins, together with: anandamide 10 µM, Ca2+ 2 mM, Mn2+ 70 µM; scale = relative to: basal, without anandamide, higher = more CB1R bound; quantity = relative binding; value = 0.31 ± 0.13 fold
Molecule = B2 (FGF6); partner = FGFR3 isoform IIIc (unknown, UniProt Q61851); test = cell proliferation, MTT; system = BaF3-FGFR3c; conditions = 20 nM, 48 h, together with: 2-O desulfated heparin 4.9 µg/mL; scale = relative to: FGF 1 with heparin, higher = more proliferation; quantity = cell proliferation; value = 26%
Molecule = SSC1 mature P486S (Saccharomyces cerevisiae); partner = Mdj1 mature (Saccharomyces cerevisiae, UniProt P35191); test = prevention of rhodanese aggregation; conditions = preformed complex; scale = relative to: wild-type Ssc1, higher = greater loss of activity; quantity = reduction in chaperone activity; value = 35%
Molecule = GLP-2 mature G4A, C-terminal amide; partner = GLP2R (Homo sapiens, UniProt O95838); test = cAMP, agonist; scale = relative to: GLP-2, higher = more cAMP; quantity = relative cAMP production; value = 109%
Molecule = YAEKHRRAKLRLYLEQ (MXD4 D-site peptide (Homo sapiens)); partner = Mapk14, pT180, pY182 (Rattus norvegicus, UniProt P70618); test = kinase activity, inhibitor, competitive kinase inhibition assay; system = peptide; conditions = together with: ATP 1 mM; quantity = IC50; value = 5.2 µM
Molecule = Prkcb (Mus musculus, UniProt P68404); partner = integrin β3 (Mus musculus, UniProt O54890); test = co-IP; system = aortas; conditions = diabetic mice; scale = relative to: euglycemic controls, higher = more association; quantity = association increase; value = 2.5 fold
Molecule = DNAJC7 (Homo sapiens, UniProt Q99615); partner = T2, HSP90AA1 723-732 C-terminal peptide E to K, N-terminal 5-carboxyfluorescein (Homo sapiens); test = fluorescence polarisation; conditions = Lys mutant tracer, together with: 5-Fam peptide tracer 20 nM; scale = relative to: wt Hsp90α tracer, higher = weaker binding; quantity = affinity change; value = > 3 fold
Molecule = TFPI endogenous, on cells (Homo sapiens, UniProt P10646); partner = F3/F7 TF-fVIIa complex (Homo sapiens); test = factor Xa generation; system = HUVEC; conditions = LPS-treated, endogenous TF, α-cyclodextrin, control; quantity = maximum factor Xa generated; value = 27.9 nM
